Measured values pooled from the literature.
Parts stem from different laboratories: compare values within a part only.

Block 1
Target: RNA binding protein fox-1 homolog 2, RRM domain, GST-SBP tag (RBFOX2, Homo sapiens, UniProt O43251-10, residues 100-194)
Method: RNA Bind-n-Seq
Form: RNA
Sample: in vitro
Tested at: 365 nM
Setting: natural RNA segment, single round, ends assumed
Relative to: no-protein control
Reading: higher = stronger binding
Constant ends, left off below: GGGAGUUCUACAGUCCGACGAUC … UGGAAUUCUCGGGUGCCAA
Construct (chain): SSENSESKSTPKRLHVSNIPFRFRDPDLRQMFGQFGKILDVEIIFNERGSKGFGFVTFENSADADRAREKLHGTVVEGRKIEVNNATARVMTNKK
Oligonucleotide	RBNS enrichment (R)
GAAGAGGGGGAGUGAUGGUGCAGCCUACACUAUUCUAGCAGGAGGGUUGGGCGUGCUACCUGCACCGCCCCUUCUCCAACAAGUUGCCUCCAAGCUUUGGGUUGGAGCUG	0.273
GCACAUAUAAUUUUUUUUUAAUUUAUGAUCCAUUUUGUAUGGUCUCAAAGUUGGAUGACCUCAUUACUAAUAUUUGUUGUAAAAGUGAAACUUGUUUGCCAACCAAUAAA	0.709
UCUUGGAAGUUACAAUUUAAGGUACCCCAAAAAAGUUGGAAAUAAAACAAAACAAACAUAAACAAUGAAGCACCCUGUGAAAUGCCAAAUGAGUCACUCCUUUUACCUUU	0.474
GGUUAGCAAAUGAUGUAAAAGAAGCUUUAUUGUCUAGUUGUUUUUUUUCCCCCAAGACAAAGGCAAGUUUCCCUAAGUUUGAGUUGAUAGUUAUUAAAAAGAAAACAAAA	0.966
UCUUCAAAUGAAUGUGAGUGAAGCAGCCCAAGGCUCUUCCUUAAUUCCUCUGGAGUGAUGCUGUGCCAUGCUGGUCUUUGCUUCUAGUAAUAAAACAUCAAAUUAGGUUU	0.393
CAGUAGGCUCCCUGCAGUCCUUGGGAACUAUCCAAGCACGAAUCAGCAGAAGCUUGUAGGAUGAGUGUGUCGGGGCUUAAAUACUAGACAGUUCCAAUGAGAUAACACUA	0.489
GCCAGUGUCUCUGCUUGAGAUGGAAUGGUGUUCCCAGCCUGCCUUGUCACUCCUCACCUGAGAGGAAGCAGUGGGUGGUCUGACUCUGCAGCCCAGAGACACAGGAGGCU	0.332
GGGUUUUCCUACGUAGGAUGAAAAGAUUCUUCUGUGUUUAUAAAAUAUAAACAAAGAUUCAUGAUUUAUAAAUGCCAUUUAUUUAUUGAUUCCUUUUUUCAAAAUCCAAA	1.21
ACACCCGAGUGUGGCUUUUCUCAAAGAAAGGUGAAGAAGGGGCCUCAGUUCUUACAGUGGGGACCACACUGCUGCCUGCCCCCUUCCCAACUGUGAUUCUCACACACUCA	0.372
AAUUUGGGGUGGGAUAGCAGGUCAGUUGAUCUUCUGCAGGAAGGUGCAGCUUUUCCAUAUCAGCUCAACCACGCCGCCAGUCCAUUCUUAAGGAACUGCCGACUAGGACU	0.24
AAAGUGGAAAUUUUUCUCCCCUAUAUAAAAUUAUUCUGCCUAGCAGAAAUGCCAGAAAUAAAUUAAUUGCAUCUUAGUCUAAAUUUAAGUCCUUUGCCAUGAGGAAAAAG	2.08
UUGUUGUCUUGUUGUAUAAGAAAUCUAGGUAGGUGCUUUCAACUAGAGUGUUGACCUUGUUAAGACGGACGUAGCUGCACGGUAUUCUCAAUACUGAGAUUGCAAAACUG	1.23

Block 2
Target: Histone acetyltransferase KAT6A, winged helix 2, GST fusion (KAT6A, Homo sapiens, UniProt Q92794, residues 85-181)
Method: protein binding microarray
Form: double-stranded DNA, one strand shown
Sample: in vitro
Tested at: not given
Setting: 8-mer, flanks averaged, mean of 2 arrays, mostly near background
Relative to: not given
Reading: higher = stronger binding
Target sequence (chain): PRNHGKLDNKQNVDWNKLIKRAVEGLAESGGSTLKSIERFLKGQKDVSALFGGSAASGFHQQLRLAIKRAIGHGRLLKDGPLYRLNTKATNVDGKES
Oligonucleotide	E-score
GCCCATCC	0.0492
AGGCCGTG	0.0436
TGGCTAAA	0.0223
CGCGGGAG	0.204
CCGCGAAA	0.0898
ATAGCGCC	0.0406
AAGGCATG	-0.0227
CTGTTTGA	-0.0176
GGTGAAGA	0.0769
GACACCTC	-0.0283
ATAGTTAG	0.00831
CGCAGCAC	0.0412
ACATTCGT	-0.111
ACCCCACG	-0.16
CGTATTGC	-0.099
CAGGGACA	0.0556
CAATCAGG	0.0601
CCATTAAC	-0.00844
TAATCTAA	0.0735
TAAGCGAA	-0.005
GTGCATCA	0.0812
AGTCGGAC	-0.144
TAGAAGAA	-0.00086
CAGGCGAA	0.184
TGGGACCA	-0.0183

Block 3
Target: RING finger protein unkempt homolog, zinc fingers 1-6, GST-SBP tag (UNK, Homo sapiens, UniProt Q9C0B0, residues 30-357)
Method: RNA Bind-n-Seq
Form: RNA
Sample: in vitro
Tested at: not given
Setting: RNA with constant flanks, ends assumed
Relative to: input RNA pool
Reading: higher = stronger binding
Constant ends, left off below: GGGAGUUCUACAGUCCGACGAUC … CAACAGAGGAUUGAGCAUCA
Target sequence (chain): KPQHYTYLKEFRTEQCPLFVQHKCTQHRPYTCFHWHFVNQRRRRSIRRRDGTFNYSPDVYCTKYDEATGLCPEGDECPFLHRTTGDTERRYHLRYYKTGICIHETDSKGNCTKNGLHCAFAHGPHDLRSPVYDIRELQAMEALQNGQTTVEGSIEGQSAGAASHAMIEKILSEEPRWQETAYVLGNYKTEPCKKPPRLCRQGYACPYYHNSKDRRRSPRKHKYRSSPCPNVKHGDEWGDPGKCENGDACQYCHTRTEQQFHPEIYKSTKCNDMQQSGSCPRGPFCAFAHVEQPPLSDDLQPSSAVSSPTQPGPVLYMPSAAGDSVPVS
Oligonucleotide	bound/input enrichment
CAAGGCGGUUUCAGAGAAGUUCGGAAUGAGUAUGGGUCAAGAAUAGGAGGAAAUGAAGGGACCGAUGUCCCCAUUCCAAGAUUUGCUGUUGGCAUUGUAAUAGGAAGAAAUGGAGAGAUG	2.76 ratio
AGUUUAAGCCUGACACACAGGCUUUGGUCCUCACUGAGCUGUCUCCAAGACUGGAACUACUCCGUGACUCGGCAAAUUUUCUGCCCCCCACCCCUCAUCAAAGCUGCUAGUUCAGAUGUU	1.5 ratio
GAGGUGGUGCCUAUUCAUCAGCAGGACAUUCCUGUUGAUAAUCCCAUCGAGAGCAAUAAUAUCUUCCCCGUGGCCCCAUUGAUCAUCUGCCACGUGAUUGACAAGCGUAGCCCCCUGUAU	0.15 ratio
CCUUUAUAUCCUCAGCCCAAGAGACGGUGUUCCCCUGCGACCUCCAAGCCUGGAAUUGUGCACCGCCUGGGUCUUGUAUCUUUGUAUAACGGAUGUUAUUUGUACGAAGGGCAGUUCGUA	0.304 ratio
UAACCACAUCAAGAUGGUUGGAAAGCUGAAGCAGAACUUACUAUUGGCAUGUCUGGUGAUCCGUUCUGUGACUGUGUUUUACCUGGGCCAGCAUGCCAUGGAAUGCCAUCACCGGAUAGA	0.092 ratio
CAUGGCGGCCGCCCCGGAGCCCCACGAGACGGAGAAAAAGCCCUUCAAGCUCCUAGGUAUUUCCGAUGUUGAGAACACUCCAUGUGCUCGAGAAUCUAUACUCUAUGGCUCAUUAGGAUC	0.29 ratio
GGUGUGCCAGCUCUGACGCAGAACCUACCAAGGAUACUCAGAAAAGAACGCCCUAUAUCAUCCGGAAUUUUCCCAUUACCUGCUGGAGAUGGAUUGCUUACACCUGAUGCUCAGAAAGGA	0.198 ratio
ACUGAAAUACUAGUAAAUUACUUGAGUUUUUCACGAUGACUUCAGAGGAGGGGUCAUCACCCGGUGCUUUGUCCUUUUUGUACUAUGAUUCACCCAUCUCUUGGAUUGGAUGUAGCAAUA	0.491 ratio
GUAUAUAUUUCCAGGCUGCAUCUUCAGCCUGAUAUGUACUUUGUAGUUGCAACAGCGCCCCCGGUGCCCUAUGGCCCACCAAGUUUGAGGAGGGUGGUGCUUUCCGGAUUGAGCCUGGGC	0.156 ratio
GAAAAAUUAUCUAGGCCUGAUCUCAAACGGCAGAAUCUACUGUAAUCAAAUCAAUGACUUUUUCCGACACAUUUUAUAAAAAUGCAGCACAUGUAGUGUUGCCCCCCACCCAAUCUGUAU	0.629 ratio
UACAUGUUUUCUCUUGUGCAUCAAUUUAAAUGUUACAACCAUGUAAACUACUUCUCUUGUCCGACCGAUUUUCACCUAGACUUUUUUUCCCAAAUCAGAAAAAAAAUACACACUAAAUAA	0.602 ratio

Block 4
Target: Ras GTPase-activating protein-binding protein 1, full length (G3BP1, Homo sapiens, UniProt Q13283)
UniProt Q13283, sequence (whole entry, looked up): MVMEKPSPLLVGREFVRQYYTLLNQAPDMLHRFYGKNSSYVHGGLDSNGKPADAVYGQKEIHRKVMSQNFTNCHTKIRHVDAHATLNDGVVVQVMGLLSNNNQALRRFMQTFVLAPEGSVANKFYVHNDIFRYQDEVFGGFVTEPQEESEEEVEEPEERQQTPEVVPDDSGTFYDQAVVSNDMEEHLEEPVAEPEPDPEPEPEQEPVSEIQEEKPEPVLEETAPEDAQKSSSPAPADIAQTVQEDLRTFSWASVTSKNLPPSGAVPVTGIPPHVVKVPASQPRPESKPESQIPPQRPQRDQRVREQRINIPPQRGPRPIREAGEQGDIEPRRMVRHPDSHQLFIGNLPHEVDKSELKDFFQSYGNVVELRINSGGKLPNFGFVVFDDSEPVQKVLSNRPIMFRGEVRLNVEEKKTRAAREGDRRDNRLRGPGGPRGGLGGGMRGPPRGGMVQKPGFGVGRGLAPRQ
Method: RNA Bind-n-Seq
Form: RNA
Sample: in vitro
Tested at: 200 nM
Setting: whole 134-nt RNA, ends assumed
With: 150 mM KCl
Relative to: input library
Reading: higher = stronger binding
Constant ends, left off below: GGGAGUUCUACAGUCCGACGAUC … UGGAAUUCUCGGGUGUCAAGG
Oligonucleotide	log2 enrichment
UCCUGUGCUACACAUCGUAUGUACCGAAUCGGGGAAAGGGGUUUGGGGAAAAAAAGGGGAAAGUAUUAUGUUACGCCGUUCGGAUCUGCA	0.627
UCCUGUGCUACACAUCGUAUGUACCGAAUCAAACCCCCAAACCCCCAAACCCCCCCAAAAAAGUAUUAUGUUACGCCGUUCGGAUCUGCA	0.0691
GUCCUGUGCUACACAUCGUAUGUACCGAAUCGGAAAAAGGAAAAAAAGGUUUUUUUGGAAAGUAUUAUGUUACGCCGUUCGGAUCUGCAC	-1.44
CCUGUGCUACACAUCGUAUGUACCGAAUCGGAAAAAAAGGAAAAAAAGGGAAAAAAAGGGAAAGUAUUAUGUUACGCCGUUCGGAUCUGC	-1.04
ACCAUGCAGGUGAGCAUCUUUGGGAAGUGGGGCAAGGGGGGGAUAGGGAGGGGGGUAACACUUUGGGAACAGGUGGUCCCAGGUCGUUUC	0.868
AGUCCUGUGCUACACAUCGUAUGUACCGAAUCGGGGUUUUUGGGGAAAGGGGAGGGGAAAGUAUUAUGUUACGCCGUUCGGAUCUGCACU	0.3
AGUCCUGUGCUACACAUCGUAUGUACCGAAUCAAAUUUUUAAAUUUUUAAAUUUAAAAAAGUAUUAUGUUACGCCGUUCGGAUCUGCACU	-1.89
UUCCCUGAAGAUGAGAUCCCAGAGAAGGCCUGCAGGCGCCUGCUUGAAGGGAGGCGGCAGAAGAAGACGAAGAAGCAGAAGCGUCUGCUC	0.561
CUGUGCUACACAUCGUAUGUACCGAAUCGGGGUUUUUUUGGGGAAAAAGGGGUUUUUGGGGAAAGUAUUAUGUUACGCCGUUCGGAUCUG	-0.209
UCCUGUGCUACACAUCGUAUGUACCGAAUCGGGGAAAGGGGAAAAAAAGGGGAAAGGGGAAAGUAUUAUGUUACGCCGUUCGGAUCUGCA	0.811
CUCAAGUCCUGUGCUACACAUCGUAUGUACCGAAUCGGUGGAGGUUUUUUUGGAAAGUAUUAUGUUACGCCGUUCGGAUCUGCACUUCCA	-0.476
AAGUCCUGUGCUACACAUCGUAUGUACCGAAUCGGGAGGGUUUUUUUGGGAAAGGGAAAGUAUUAUGUUACGCCGUUCGGAUCUGCACUU	-0.0432
UGGCCCUGGUGGCAUGCGGGGAGGAAGAGGUGGCCUCAUGGAUCGUGGUGGGCCCGGUGGAAUGUUCAGAGGUGGCCGUGGUGGAGACAG	0.52
UCCUGUGCUACACAUCGUAUGUACCGAAUCGGGGUGGGGUUUUUUUGGGGUUUUUGGGGAAAGUAUUAUGUUACGCCGUUCGGAUCUGCA	0.653

For quick reference, copied from above (block 4):
Oligonucleotide	log2 enrichment
AGUCCUGUGCUACACAUCGUAUGUACCGAAUCGGGGUUUUUGGGGAAAGGGGAGGGGAAAGUAUUAUGUUACGCCGUUCGGAUCUGCACU	0.3
AGUCCUGUGCUACACAUCGUAUGUACCGAAUCAAAUUUUUAAAUUUUUAAAUUUAAAAAAGUAUUAUGUUACGCCGUUCGGAUCUGCACU	-1.89
UCCUGUGCUACACAUCGUAUGUACCGAAUCAAACCCCCAAACCCCCAAACCCCCCCAAAAAAGUAUUAUGUUACGCCGUUCGGAUCUGCA	0.0691
CUCAAGUCCUGUGCUACACAUCGUAUGUACCGAAUCGGUGGAGGUUUUUUUGGAAAGUAUUAUGUUACGCCGUUCGGAUCUGCACUUCCA	-0.476
